Results pooled from the literature.
Protocols differ between the studies behind these lines. “And” joins repeats or separate records; there may be more than shown. In brackets after ≈: the same amount, converted by molar mass.
Organism: Staphylococcus aureus

SMILES = CC[C@H](C)[C@H](NC(=O)[C@H](CCCCN)NC(=O)[C@H](CCCCN)NC(=O)[C@H](Cc1ccccc1)NC(=O)[C@@H](NC(=O)[C@@H](NC(=O)[C@H](CCCNC(=N)N)NC(=O)[C@H](Cc1ccccc1)NC(=O)[C@@H](NC(=O)[C@H](CCCCN)NC(=O)[C@H](CCCCN)NC(=O)[C@@H](N)CCSC)[C@@H](C)CC)C(C)C)[C@@H](C)CC)C(=O)N[C@@H](CC(C)C)C(=O)N[C@@H](CCCCN)C(=O)N[C@@H](CCCNC(=N)N)C(=O)N[C@@H](CC(C)C)C(=O)N[C@H](C(=O)N[C@H](C(=O)O)C(C)C)[C@@H](C)CC; test = broth microdilution; system = MRSA GU-1; conditions = 16 to 18 h; endpoint = MIC; result = 4 µg/mL (≈ 1.76 µM)
SMILES = CC(C)C[C@H](NC(=O)CNC(=O)CNC(=O)CNC(=O)[C@H](Cc1ccc(O)cc1)NC(=O)[C@H](CC(C)C)NC(=O)[C@@H](NC(=O)CNC(=O)[C@H](Cc1ccc(O)cc1)NC(=O)[C@H](CCCCN)NC(=O)[C@H](CC(N)=O)NC(=O)[C@@H](NC(=O)[C@H](CCCCN)NC(=O)[C@H](Cc1c[nH]c2ccccc12)NC(=O)CN)[C@@H](C)O)[C@@H](C)O)C(=O)N[C@@H](CCCCN)C(=O)N[C@@H](CCCCN)C(=O)N[C@@H](CC(C)C)C(=O)N[C@@H](CC(C)C)C(=O)N[C@@H](CC(C)C)C(=O)N[C@@H](CC(C)C)C(=O)N[C@@H](CC(C)C)C(=O)N[C@@H](CCCCN)C(=O)N[C@@H](CCCCN)C(=O)N[C@@H](CC(C)C)C(=O)NCC(=O)O; system = USA300; conditions = with: 150 mM NaCl; endpoint = MIC; result = 32 µg/mL (≈ 11.2 µM)
SMILES = CN[C@H](CC(C)C)C(=O)N[C@H]1C(=O)N[C@@H](CC(N)=O)C(=O)N[C@H]2C(=O)N[C@H]3C(=O)N[C@H](C(=O)N[C@H](C(=O)O)c4cc(O)cc(O)c4-c4cc3ccc4O)[C@H](O)c3ccc(c(Cl)c3)Oc3cc2cc(c3O[C@@H]2O[C@H](CO)[C@@H](O)[C@H](O)[C@H]2O[C@H]2C[C@](C)(N)[C@H](O)[C@H](C)O2)Oc2ccc(cc2Cl)[C@H]1O; system = CAAS-2019-CAAS-2019-10 clinical blaZ-resistant isolate, PBS; endpoint = MBC; result = 4 µg/mL (≈ 2.76 µM)
SMILES = Cc1c2c(nn1C)CSCc1cc(n(C)n1)CSc1cc(c3ccccc3c1)OCCCc1c(C(=O)O)n(C)c3c-2c(Cl)ccc13; test = membrane permeability, propidium iodide uptake; system = SA113; conditions = 4 x MIC; scale = relative to: untreated control; endpoint = fluorescence intensity; result = 1.2 fold
SMILES = C=CC[C@@H]1c2ccc(OC)c(OC)c2CN2CCc3cc4c(cc3[C@H]12)OCO4; system = P2rx7 A312V/A312V mice, skin wound infection; conditions = dose not given, day 4; scale = relative to: day 0; endpoint = relative wound size; result = 0.99 and 0.74 and 0.69 and 0.85 and 1.27
SMILES = CCCCCCCCCC(=O)N[C@@H](Cc1c[nH]c2ccccc12)C(=O)N[C@H](CC(N)=O)C(=O)N[C@@H](CC(=O)O)C(=O)N[C@@H]1C(=O)NCC(=O)N[C@@H](CCCN)C(=O)N[C@@H](CC(=O)O)C(=O)N[C@H](C)C(=O)N[C@@H](CC(=O)O)C(=O)NCC(=O)N[C@H](CO)C(=O)N[C@@H]([C@H](C)CC(=O)O)C(=O)N[C@@H](CC(=O)c2ccccc2N)C(=O)O[C@@H]1C; test = broth microdilution; system = BR-VRSA strain 880, Mueller-Hinton broth, Mg2+ 10 mg/L; conditions = 16 h, with: Ca2+ 2.5 mM; endpoint = MIC; result = 0.25 µg/mL (≈ 0.154 µM)
SMILES = CC[C@H](C)[C@H](NC(=O)[C@H](C)NC(=O)[C@H](CCCCN)NC(=O)[C@H](CC(C)C)NC(=O)[C@H](C)NC(=O)[C@@H](NC(=O)[C@H](Cc1c[nH]cn1)NC(=O)[C@H](CC(C)C)NC(=O)[C@@H](NC(=O)[C@@H](NC(=O)[C@H](CCCCN)NC(=O)[C@H](C)NC(=O)[C@H](C)NC(=O)[C@H](CO)NC(=O)[C@H](CCCCN)NC(=O)[C@H](Cc1ccccc1)NC(=O)[C@@H](NC(=O)[C@H](CCCCN)NC(=O)[C@H](CC(C)C)NC(=O)[C@H](Cc1ccccc1)NC(=O)[C@H](CO)NC(=O)[C@H](CCCCN)NC(=O)[C@H](Cc1c[nH]c2ccccc12)NC(=O)[C@H](CCCCN)NC(C)=O)[C@@H](C)O)[C@@H](C)O)C(C)C)[C@@H](C)O)C(=O)N[C@@H](CO)C(=O)N[C@@H](CO)C(N)=O; system = MSSA; conditions = 67 strains; endpoint = MBC90; result = 16 µg/mL (≈ 5.45 µM)
SMILES = CC(=O)NC[C@H]1CN(c2ccc(N3CCOCC3)c(F)c2)C(=O)O1; system = MRSA strain 3; endpoint = MIC; result = 0.5 µg/mL (≈ 1.48 µM)
SMILES = CO/N=C(\C(=O)N[C@@H]1C(=O)N2C(C(=O)O)=C(CSC(=O)c3ccco3)CS[C@H]12)c1csc(N)n1; system = CAAS-2019-CAAS-2019-13 clinical drug-resistant isolate, 25% plasma; endpoint = MBC; result = 64 µg/mL
SMILES = OB(O)c1csc2ccccc12; test = OD600; system = USA300 fphE::Tn transposon mutant; conditions = 5 µM; scale = relative to: wild type; endpoint = growth; result = 81.4% and 77.9% and 66.3% and 60.3% and 72.7% and 57.5%

Excerpt of the above:
SMILES = C=CC[C@@H]1c2ccc(OC)c(OC)c2CN2CCc3cc4c(cc3[C@H]12)OCO4; system = P2rx7 A312V/A312V mice, skin wound infection; conditions = dose not given, day 4; scale = relative to: day 0; endpoint = relative wound size; result = 0.99 and 0.74 and 0.69 and 0.85 and 1.27
